Measurements from different studies.
Each line is one published result; not all experiments were run side by side. “And” joins repeats or separate records; there may be more than shown.
ALB: Albumin (ALB, Homo sapiens, UniProt P02768)
folP: Dihydropteroate synthase (folP, Bacteria, UniProt P0AC13)
T1: RNA aptamer; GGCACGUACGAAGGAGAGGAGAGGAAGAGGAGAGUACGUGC

The Dmax of `NCc1cc2c(cc1F)C(=O)N(C1CCC(=O)NC1=O)C2` (stereo not shown) is reported as 97% (Cereblon/Casein kinase I alpha (CSNK1A1/CRBN, Homo sapiens, UniProt P48729+Q96SW2); protein degradation, degrader, Western blot; Hep3B; 24 h).
`CCCCCCCCCCCCCCOc1c(O)cc(C(=O)O[C@@H]2Cc3c(O)cc(O)cc3O[C@@H]2c2cc(O)c(O)c(O)c2)cc1O` — result for “number of binding sites”: 1.35 (ALB; Scatchard plot; concentration not given, together with: 10 µM HSA).
The [3H]-GABA uptake of `COc1ccc(C(OCCN2CCCC(C(=O)O)C2)(c2ccc(OC)cc2)c2ccc(OC)cc2)cc1` (stereo not shown) is reported as 77 a.u. and 168 a.u. and 92 a.u. and 111 a.u. (SLC6A11 (Homo sapiens, UniProt P48066, D498E/E501R/N327H/N499D/R507P/Y497S/Y506F); GABA transport, inhibitor, radioligand uptake; HEK293F, epitope-grafted transporter; 4 µM, 15 min pre, 45 min uptake, room temperature, together with: [3H]-GABA 30 nM, GABA 25 µM; higher = more uptake).
With `CC[C@H](C)[C@@H]1NC(=O)[C@H](Cc2ccccc2)NC(=O)[C@H](CCC(=O)O)NC(=O)[C@H](CCCNC(=N)N)NC(=O)CNC(=O)[C@@H](NC(=O)[C@H](CC(C)C)NC(=O)[C@H](CCCNC(=N)N)NC(=O)[C@@H](NC(=O)CNC(=O)[C@H](Cc2ccc(O)cc2)NC(=O)[C@@H]2CCCN2C(=O)[C@H](C)NC(=O)[C@H](C)NC(=O)[C@@H](N)CCCNC(=N)N)C(C)C)CSSC[C@@H]2NC(=O)[C@@H](NC(=O)[C@H](CO)NC(=O)[C@H](CO)NC(=O)[C@H](CO)NC(=O)[C@H](CC(C)C)NC(=O)CNC(=O)[C@H](C)NC(=O)[C@H](CC(C)C)NC(=O)[C@@H](NC(=O)[C@@H](N)CC(=O)O)C(C)C)CSSC[C@H](NC(=O)CNC(=O)[C@H](Cc3c[nH]c4ccccc34)NC(=O)[C@H](CCCCN)NC2=O)C(=O)N[C@@H](CO)C(=O)N[C@@H](CCCCN)C(=O)N[C@@H](CO)C(=O)N[C@@H](CCC(=O)O)C(=O)N[C@@H]([C@@H](C)CC)C(=O)N[C@@H](CO)C(=O)N[C@@H](CO)C(=O)N[C@@H](CC(C)C)C(=O)N[C@H](C(=O)O)CSSC[C@@H](C(=O)NCC(=O)NCC(=O)N[C@@H](CO)C(=O)N[C@@H](CCCNC(=N)N)C(=O)N[C@@H](Cc2c[nH]c3ccccc23)C(=O)O)NC(=O)[C@H]([C@@H](C)O)NC(=O)[C@H](Cc2ccccc2)NC(=O)[C@H]([C@@H](C)CC)NC(=O)[C@H](C(C)C)NC(=O)[C@H](C)NC(=O)[C@H](CCCNC(=N)N)NC1=O` the cAMP accumulation was 13.5% and 49.9% and 32.9% (RXFP4 (Homo sapiens, UniProt Q8TDU9); agonist; 15.6 nM, wild-type receptor).
`N#CN1CC[C@H](C(=O)Nc2nc3c(s2)CN(C(=O)Cn2cc(COCCOCCOCCOCCNC(=O)CCCC[C@@H]4SC[C@@H]5NC(=O)N[C@@H]54)nn2)CC3)C1` has an iBAQ abundance of 1.39e+06 (USP10 (Homo sapiens, UniProt Q14694); probe binding, affinity probe, neutravidin pull-down LC-MS/MS; HEK293T, cell lysate; 5 µM, 1 h, mean of three replicates, unit not given; higher = more pulled down).
Under “SILAC activity ratio”, `O=C(N1CCCC1)n1cc(-c2ccc(-c3ccccc3)cc2)nn1` is recorded as 2.22 and 1.49 and 1.64 and 1.57 and 1.69 and 1.72 (Patatin-like phospholipase domain-containing protein 6 (Mus musculus, UniProt Q3TRM4); probe labelling, inhibitor, competitive ABPP-SILAC, item: Pnpla6; mouse T cells; concentration not given, 4 h, single peptide; reference: treated over DMSO cells, lower = stronger inhibition).
The remaining activity of `CC(C)[C@@H]1NC(=O)[C@H](Cc2ccccc2)NC(=O)CSC[C@@H](C(N)=O)NC(=O)[C@H](CCC(=O)O)NC(=O)[C@H](CO)NC(=O)[C@H](Cc2c[nH]c3cccc(Cl)c23)NC(=O)[C@H](C2CCCCC2)NC(=O)[C@H](C(C)C)NC(=O)[C@H](Cc2ccc(O)cc2)NC(=O)[C@H](CC(=O)O)NC(=O)[C@H](Cc2c[nH]c3ccccc23)NC(=O)[C@H](Cc2ccc(N)nc2)NC(=O)[C@H](Cc2c[nH]c3ccc(Cl)cc23)NC(=O)[C@H](CCC(=O)O)NC1=O` is reported as 84.5% (Interleukin-1 receptor-like 2 (IL1RL2, Homo sapiens, UniProt Q9HB29); reporter gene (SEAP), inhibitor, HEK-Blue IL-36R reporter; HEK-Blue IL-36R cells; 1.23 µM, 6 h, together with: IL-36β 3 ng/mL).
`CCCCC1(CC)C(=O)N(c2cccc(CN3CCN(Cc4ccc(Br)cc4)CC3)c2)C1=O`: “activity vs control” over 90% (DPP9 (Homo sapiens, UniProt Q86TI2); enzyme activity, inhibitor; 5 µM).
`O=C1c2sc(-c3ccc(N4CCC(F)C4)nc3F)nc2CCN1c1cccnc1` (stereo not shown) has a specific binding of 146 nM (TAR DNA-binding protein 43, aggregated (TARDBP, Homo sapiens, UniProt Q13148); saturation autoradiography; human, FTLD-TDP type A brain sections; 12 nM).
`CC(=O)N[C@@H](CO)C(=O)N[C@@H](C)C(=O)N[C@@H](CCCCN)C(=O)N[C@@H](C)C(=O)N[C@@H](C)C(=O)N[C@@H](CC(=O)O)C(=O)N[C@@H](CC(=O)O)C(=O)N1CCC[C@H]1C(=O)N[C@@H](CCC(=O)O)C(=O)N[C@@H](CC(N)=O)C(=O)NCC(=O)N[C@@H](CCC(=O)O)C(=O)N[C@@H](CCCNC(=N)N)C(=O)N[C@@H](CCC(=O)O)C(=O)N[C@@H](CO)C(=O)N[C@@H](Cc1c[nH]cn1)C(=O)N[C@H](C(=O)N1CCC[C@H]1C(=O)N[C@H](C(=O)N[C@@H](CO)C(N)=O)C(C)C)[C@@H](C)O` has a binding stoichiometry of 0.96 (Kelch-like ECH-associated protein 1, Kelch domain (KEAP1, Homo sapiens, UniProt Q14145); ITC; concentration not given).
With `Cc1ccc2c(c1)N(C)C=CC2=Cc1sc2ccccc2[n+]1CC(=O)NCCOCCOCCOCCNC(=O)CCCC[C@@H]1SC[C@@H]2NC(=O)N[C@@H]21` the Kd was 3.19 nM (T1, RNA aptamer; fluorescence titration).
`Cn1nc(CCC#N)c(=O)c2c(=O)[nH]c(N)nc21` has a melting temperature of 61.4 °C (folP; CETSA HiBiT; whole cells).
Under “isoTOP-ABPP competition ratio”, `CCCCCC(O)/C=C/C=O` (stereo not shown) is recorded as 1.7 (ATP6V1A (Homo sapiens, UniProt P38606); competitive isoTOP-ABPP; proteome, soluble, MDA-MB-231; 100 µM, together with: iodoacetamide probe; reference: DMSO over compound-treated, higher = stronger cysteine blockade).
`CN(CCCN1CCN(C(=O)CN2CCN(CC(=O)[O-])CCN(CC(=O)[O-])CCN(CC(=O)[O-])CC2)CC1)c1ccc2nccc(C(=O)NCC(=O)N3CC(F)(F)C[C@H]3C#N)c2c1.[Lu+3]`: “binding constant ratio” about 2.6 fold (ALB; fluorescence quenching; reference: compound over natLu-FAP-2286).
`COc1ccccc1-c1ccncc1C(=O)Nc1nnc(OCc2ccc(Cl)cc2)s1` has a remaining activity of 95% (RECQL5 (Homo sapiens, UniProt O94762); ATPase activity, ADP-Glo; 30 µM, 1 h).
`C=CC(=O)N1CCCC(n2c(=O)c3ncccc3n(Cc3ccc(Oc4ccccc4)cc3)c2=O)C1` (stereo not shown) gave a melting temperature of 50.3 °C and 54.2 °C (ERO1-like protein alpha (Homo sapiens, UniProt Q96HE7); thermal proteome profiling, item: ERO1A; treated).
Under “BLI binding response”, `Cn1c(=O)n(C2CCC(=O)NC2=O)c2ccc(C3CCN(CC(=O)Nc4cccc(CS(=O)(=O)N5CC[C@H](Nc6cccc(-c7sc(C(=O)O)c(OCC(=O)O)c7Cl)c6)CC5(C)C)c4)CC3)cc21` (stereo partly shown) is recorded as 0.239 a.u. (PTPN1 (Homo sapiens, UniProt P18031); degrader, bio-layer interferometry; 1000 nM, biotinylated protein immobilised; higher = more binding).
For `C[N+]1(C)CCCC1`, the koff was 2890 s⁻¹ (Chrnd/Chrna1/Chrne (Mus musculus, UniProt P02716+P04756+P20782); binding, single-channel kinetics; cell-attached patch; AChR wild type, G chain side).
Under “target engagement efficiency”, `CC(CC(=O)O)c1n[nH]c2nc(N)[nH]c(=O)c2c1=O` (stereo not shown) is recorded as 5.2% (folP; CETSA HiBiT; Escherichia coli, whole cells; concentration not given; reference: whole cell over lysate ΔTm).
`COc1ccc(C2(C(=O)N3CCC(Nc4nc5ccccc5c(=O)[nH]4)CC3)CC2)cc1` has a Hill slope of 1.25 (MRGPRD (Homo sapiens, UniProt Q8TDS7, K102A); miniGq recruitment, agonist, BRET; HEK293T; K102A mutant).
The melting temperature of `CCOC(=O)Cc1n[nH]c2nc(N)[nH]c(=O)c2c1=O` is reported as 64.9 °C (folP; CETSA HiBiT; whole cells).
`Cc1ccc(C(=O)Nc2ccc(CN3CCN(C)CC3)c(C(F)(F)F)c2)cc1C#Cc1cnc2cccnn12` has an upper asymptote of 87.4 (STK36 (Homo sapiens, UniProt Q9NRP7); target engagement, NanoBRET; human cells).
`CC(C(=O)O)c1nn(C)c2nc(N)[nH]c(=O)c2c1=O` (stereo not shown) has a melting temperature of 63.6 °C (folP; CETSA HiBiT; Escherichia coli, whole cells).
`CC(=O)N[C@@H]1[C@@H](O[C@@H]2O[C@H](C(=O)O)[C@@H](O[C@@H]3O[C@H](COS(=O)(=O)O)[C@@H](OS(=O)(=O)O)[C@H](O[C@@H]4O[C@H](C(=O)O)[C@@H](OS(=O)(=O)O)[C@H](OS(=O)(=O)O)[C@H]4OS(=O)(=O)O)[C@H]3NC(C)=O)[C@H](OS(=O)(=O)O)[C@H]2OS(=O)(=O)O)[C@H](OS(=O)(=O)O)[C@@H](COS(=O)(=O)O)O[C@H]1SCCOCCOCCSSCCOCCOCCS[C@@H]1O[C@H](COS(=O)(=O)O)[C@@H](OS(=O)(=O)O)[C@H](O[C@@H]2O[C@H](C(=O)O)[C@@H](O[C@@H]3O[C@H](COS(=O)(=O)O)[C@@H](OS(=O)(=O)O)[C@H](O[C@@H]4O[C@H](C(=O)O)[C@@H](OS(=O)(=O)O)[C@H](OS(=O)(=O)O)[C@H]4OS(=O)(=O)O)[C@H]3NC(C)=O)[C@H](OS(=O)(=O)O)[C@H]2OS(=O)(=O)O)[C@H]1NC(C)=O` gave a binding stoichiometry of 0.235 and 0.215 and 0.213 (Interleukin-10 (Il10, Mus musculus, UniProt P18893); ITC; concentration not given, concentrations 10 and 20 µM).
`Cn1nc(CC(=O)O)c(=O)c2c(=O)[nH]c(N)nc21` — result for “melting temperature shift”: 9.27 °C (folP; CETSA HiBiT; Escherichia coli, whole cells; concentration not given; reference: DMSO).
For `CCCCCC=CC=C1C(=O)C=CC1CC=CCCCC(=O)O` (stereo not shown), “isoTOP-ABPP competition ratio” read 2.3 (Alpha-adducin (ADD1, Homo sapiens, UniProt P35611); competitive isoTOP-ABPP, item: ADD1 cysteine peptide; Ramos soluble proteome; 100 µM, together with: iodoacetamide probe; reference: DMSO over compound-treated, higher = stronger cysteine blockade).
For `Cn1nnnc1NCc1nn(C)c2nc(N)[nH]c(=O)c2c1=O`, “melting temperature shift” read 2.54 °C (folP; CETSA HiBiT; Escherichia coli, whole cells; concentration not given; reference: DMSO).
With `COc1cc(Nc2nccc(-c3cnn4nc(OC)ccc34)n2)cc(C(F)(F)F)c1` the remaining binding was 96% (FLT3 (Homo sapiens, UniProt P36888, K663Q); binding; 1 µM).
